# Published values gathered from unrelated publications.
# Parts stem from different laboratories: compare values within a part only. Substitutions count along the parent as printed.

# Sample 1
# Target: Ras GTPase-activating protein-binding protein 1, full length (G3BP1, Homo sapiens, UniProt Q13283)
# Sequence of UniProt Q13283 (whole entry, looked up): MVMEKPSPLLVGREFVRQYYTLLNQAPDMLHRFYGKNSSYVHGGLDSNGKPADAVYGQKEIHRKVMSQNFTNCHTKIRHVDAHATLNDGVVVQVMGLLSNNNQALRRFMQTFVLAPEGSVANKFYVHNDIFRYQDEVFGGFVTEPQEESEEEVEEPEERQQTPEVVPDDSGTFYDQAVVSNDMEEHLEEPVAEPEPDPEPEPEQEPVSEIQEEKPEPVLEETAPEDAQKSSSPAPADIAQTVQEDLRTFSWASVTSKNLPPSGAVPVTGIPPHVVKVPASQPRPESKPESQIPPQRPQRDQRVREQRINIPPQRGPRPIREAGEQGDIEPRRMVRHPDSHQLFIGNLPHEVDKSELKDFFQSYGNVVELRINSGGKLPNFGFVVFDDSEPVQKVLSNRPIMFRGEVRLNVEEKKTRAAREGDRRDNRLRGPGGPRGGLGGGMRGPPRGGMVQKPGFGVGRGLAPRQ
# Method: RNA Bind-n-Seq
# Form: RNA
# Matrix: in vitro
# Concentration: 200 nM
# Setting: whole 134-nt RNA, ends assumed
# Added: 150 mM LiCl
# Reference: input library
# Direction: higher = stronger binding
# Library: 7-deaza-guanosine replaces G
# All sequences stand within: GGGAGUUCUACAGUCCGACGAUC … UGGAAUUCUCGGGUGUCAAGG
Strand,log2 enrichment
GCAGGAAGUAAAAACAAAUGGAAAUGCUUCGGAUAGUGGCAGGGGUGGGGGUUGGUAAGGAAAGGGUGGGAUGGGAGUGGGUAAAGAGUU,0.111
AGUCCUGUGCUACACAUCGUAUGUACCGAAUCGGGAAAAAAAGGGUGGGAAAAAGGGAAAGUAUUAUGUUACGCCGUUCGGAUCUGCACU,-0.701
ACCAUGCAGGUGGGCAUCUUUGGGAAGUGGGGCAAGGGGGGGAUAGGGAGGGGGGUAACACUUUGGGAACAGGUGGUCCCAGGUCGUUGC,0.106
CUCAAGUCCUGUGCUACACAUCGUAUGUACCGAAUCGGGUUGGUUGGGGUUGGAAAGUAUUAUGUUACGCCGUUCGGAUCUGCACUUCCA,0.24
UGGCCCUGGUGGAAUGCGGGGAGGAAGAGGUGGCCUCAUGGAUCGUGGUGGUCCCGGUGGAAUGUUCAGAGGUGGCCGUGGUGGAGACAG,0.542
AAGUCCUGUGCUACACAUCGUAUGUACCGAAUCGGGUUUGGGUUUGGGGUUUGGGGAAAGUAUUAUGUUACGCCGUUCGGAUCUGCACUU,-0.656
GCAGGAAGGAAAAACAAAUGGAAAUGCUUCGGAUAGUGGCAGGGGUGGGGGUUGCUAAGGAAAGGGUGGGAUGGGAGUGGGUAAAGAGUU,-0.111
CUGUGCUACACAUCGUAUGUACCGAAUCGGCCCCCCCGGGCCCCCCCGGGCCCCCCCGGGGAAAGUAUUAUGUUACGCCGUUCGGAUCUG,-0.209

# Sample 2
# Target: RNA binding protein fox-1 homolog 2, RRM domain, GST-SBP tag (RBFOX2, Homo sapiens, UniProt O43251-10, residues 100-194)
# Method: RNA Bind-n-Seq
# Form: RNA
# Matrix: in vitro
# Concentration: 365 nM
# Setting: natural RNA segment, single round, ends assumed
# Reference: no-protein control
# Direction: higher = stronger binding
# All sequences stand within: GGGAGUUCUACAGUCCGACGAUC … UGGAAUUCUCGGGUGCCAA
# Residues (chain): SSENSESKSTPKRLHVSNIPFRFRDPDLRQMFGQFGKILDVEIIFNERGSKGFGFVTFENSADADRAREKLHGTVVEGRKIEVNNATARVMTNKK
Strand,RBNS enrichment (R)
GGCCAAGGCCGCUAGGGUCCUUACCCCUCAGGAUCACUCCCCAGCCCUUUCCUCAGGAGGUACCGCUCUCCAAGGUGUGCUAGCAGUGGGCCCUGCCCAACUUCAGGCAG,0.374
GAGAGUUUUUAAUUGUAAAUGCAUACUUGGGAAGGACUUAGAGUUUUAAACUGUUUUUUGCUUUUGCUUUUCCCUGACUCCCUUUGCUUGGAGUCAGCUGCACACCAGUA,1.12
CUGGCCACUGUCCCUGUCCUUCUACAGAACCUGAGGGCAAAGAUGGUGGCUGUGUCUCUCCCCGGUAAUGUCACUGUUUUUAUUCCUUCCAUCUAGCAGCUGGCCUAAUC,0.511
AUAAAUGUGAUUUUUGUGUGAUUAUCUGGUUUCCAGUUUUAAACAUUAACUGUCACCUUUUAUUCUUAAACUUGAAAGUACAGAAAUCAUUAAAUUAUUAAGUUGUACAA,0.331
UGAGCUGUGAGUGGUUAGUGCAUUGCUGGUAUUGCUGAAGGCAGGGUUGAUCCCUCACUUGACUGAUACUUGCAUUCAAGAGAAUCUAGAUUGUGUUGGGGGAGGGACUG,0.555
AUGGUGCUAAGUUUUUACAGUUGUCUUAGCCCCAGUGGUUCUCAAGGUGGGGCUCCUGGCCCAGCAGCAGCAACUUGUUUGUUAGAAUGCAGACGCGCAGGCCCCACCUG,0.378
ACACAGGUGGGGACUGGGCACAGCUCUUCACACCAUUCAUUCUGGUCAUUUCCCCCAAAGGCAUCCCAGCCUGGGGGCCAGUGGGGAACUGAGGGCAAGGGGAUAUAGUG,0.492
CUGCCCUCGCUGCAGACAGCAGCCGGAGGCUAUUUUGUAGUGCAGAGAUGACUCACUCACUCCGUGUGUUCUACAGUGCUGAGGUGGAUGACCUGGCCUACAGCAAAGGA,0.406

# Sample 3
# Target: RING finger protein unkempt homolog, zinc fingers 1-6, GST-SBP tag (UNK, Homo sapiens, UniProt Q9C0B0, residues 30-357)
# Method: RNA Bind-n-Seq
# Form: RNA
# Matrix: in vitro
# Concentration: not given
# Setting: RNA with constant flanks, human and mouse sites, ends assumed
# Reference: input RNA pool
# Direction: higher = stronger binding
# All sequences stand within: GGGAGUUCUACAGUCCGACGAUC … CAACAGAGGAUUGAGCAUCA
# Construct (chain): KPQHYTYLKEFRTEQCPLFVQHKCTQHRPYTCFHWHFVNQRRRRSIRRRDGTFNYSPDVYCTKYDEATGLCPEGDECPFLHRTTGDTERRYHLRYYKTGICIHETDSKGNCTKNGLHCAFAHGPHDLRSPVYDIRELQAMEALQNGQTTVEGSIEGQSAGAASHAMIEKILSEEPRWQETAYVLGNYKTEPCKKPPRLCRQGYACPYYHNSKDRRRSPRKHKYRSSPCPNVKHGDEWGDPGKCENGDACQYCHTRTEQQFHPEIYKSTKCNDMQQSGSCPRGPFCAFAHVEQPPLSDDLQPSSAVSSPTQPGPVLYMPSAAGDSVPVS
Strand,bound/input enrichment
AGAAGGAACACCUUCCAAAUUUUGCUUCAAGCUCUGAAAAAAGGAGCACACAGGGGAACCUUAGUCUUGCUUGUGGAUCGAAGCAAAUACUAUCACAGCGAGGAACUGGGACUUUGUGUG,0.0568 ratio
GAGUUUCCAGACAAGGUUUUUGCUGAGAAGUGGAAUGAAAAUGUUCAGUAUCUCUCAGAAGAUAGAAGUGUGCAAGAAGUACUACAGAAGCAUUUCAAUAUCAGCAAAAACCUGCGGUCA,0.134 ratio
UAUCUGGAACAAUUUGUUGGAGACCAAGAAGCCUGGCAUGAACUUGCAGAACUUUACAUCAAUGAACAUGACUAUGCAAAAGCAGCCUUUUGUUUAGAGGAACUAAUGAUGACUAAUCCA,0.274 ratio
AUCAUACACUUCCUUCUUUUUUAAAAAAGUUGGGUUUUCUCCAUUCAGGAUUCUGUUCCUUAGGUUUUUUUCCUUCUGAAGUGUUUCACGAGAGCCCGGGAGCUGCUGCCCUGCGGCCCC,0.564 ratio
UGGUAUCUCUUCUUAGUGUUCUAUUUAUCUUAUUUGCUAAUGGGAGCACUUCUUCCUUUGUUAGGCUGUGCUUUACUGAUAAAACCAAGUAUUGAAUAAAGAGAGUUAAUUAUCUUUUUA,1.08 ratio
GUGUGUAGUAACUACCACCCCACCCUCAAUUCAGAAUGGAACGUACCGCUUUUGCUGCUGUAGUACAGAUUUAUGUAAUGUCAACUUUACUGAGAACUUUCCACCCCCUGACACAACACC,0.331 ratio
CUGUGUCUGCAGGAGCCUGGGGUGUUCCCACAGGAGGUGGCUGACCGGCUUCUUCAGACUAUAGCAUUCCACGGUCUCCUGAAUGAUGGAACUGUGGGAAUUUUCAGAGGUAACCAGAUG,0.36 ratio
GACGGUCCAUCCAAGGUGUCUUACACCUUACAGCGCCAGACUAUCUUCAACAUUUCCCUUAUGAAACUCUAUAACCACAGGCCCCUGACAGAGCCCAGCUUGCAAAAGACCGUUUUAAUU,0.197 ratio

# Sample 4
# Target: CCNA2, cyclin fold, Cln2 fusion (human)
# Method: yeast growth competition, sequencing
# Matrix: yeast
# Setting: weak parent motif
# Reference: not given
# Direction: higher = stronger binding
# Starting sequence: E2F8 docking peptide (human); FVPQRKLEVSTED
Change,normalised enrichment score
FVPQRKLEVATED [S10A],0.328
FVPQRKLELSTED [V9L],0.0279
FAPQRKLEVSTED [V2A],0.0321
FVPQRKLEVSAED [T11A],-0.37
FVPQKKLEFSTED [R5K V9F],1.06
FVPQRALEVSTED [K6A],-0.437
FVPQRKLAVSTED [E8A],-0.13
AVPQRKLEVSTED [F1A],0.582
FVPQAKAEVSTED [R5A L7A],-0.478
FVPQAKLEVSTED [R5A],-0.306
FVPQKKLELSTED [R5K V9L],-0.0103

# Sample 5
# Target: Sal-like protein 4, full length isoform B (SALL4, Homo sapiens, UniProt Q9UJQ4-2, residues 1-616)
# Method: universal PBM
# Form: double-stranded DNA, one strand shown
# Matrix: in vitro
# Concentration: not given
# Setting: 8-mer, flanks averaged, mean of replicates
# Direction: higher = stronger binding
# Construct (chain): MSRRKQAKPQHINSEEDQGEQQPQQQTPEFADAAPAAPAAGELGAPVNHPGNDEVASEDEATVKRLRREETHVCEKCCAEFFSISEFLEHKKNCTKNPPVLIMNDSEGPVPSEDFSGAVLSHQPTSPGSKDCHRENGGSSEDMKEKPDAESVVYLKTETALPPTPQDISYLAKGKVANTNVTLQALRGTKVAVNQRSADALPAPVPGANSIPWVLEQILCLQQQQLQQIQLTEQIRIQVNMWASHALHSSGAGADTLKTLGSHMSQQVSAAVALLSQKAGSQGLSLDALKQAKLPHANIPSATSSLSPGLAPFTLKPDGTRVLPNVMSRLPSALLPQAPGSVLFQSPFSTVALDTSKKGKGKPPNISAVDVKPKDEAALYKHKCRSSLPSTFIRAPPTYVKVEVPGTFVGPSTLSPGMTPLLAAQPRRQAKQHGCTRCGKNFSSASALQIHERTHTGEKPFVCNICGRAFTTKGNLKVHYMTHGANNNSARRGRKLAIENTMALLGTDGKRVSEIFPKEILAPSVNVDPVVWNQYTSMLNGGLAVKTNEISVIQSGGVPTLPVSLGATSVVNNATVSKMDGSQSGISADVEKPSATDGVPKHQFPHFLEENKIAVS
Strand,E-score
ATCCCACG,-0.207
GGGCCGAC,-0.326
AGCAACCT,-0.163
GAGCGACA,-0.0913
AAACACTG,0.0419
CCGTTATC,0.143
CCAGTTTC,-0.251
CGGAAGGA,-0.161
AAACAAGG,-0.0786
CCCTCGGC,-0.363
CAGCTAAA,-0.00334
CCACAAAC,0.051
CCGACCTC,-0.227
TCTTTACA,0.13
ATGATTGA,0.216
CAAAAACG,-0.0081
GCCTCGCA,-0.189
AGCCGCGG,-0.325
GGCTTAAA,0.039
AAAATGTG,0.16
CGAGACAC,-0.202
ACCGACTC,-0.155
AGCAAGCT,-0.168
CGGAAAAC,-0.0354
CGAGGTTC,-0.05

# Some of these lines once more (sample 5):
Strand,E-score
ATGATTGA,0.216
CAAAAACG,-0.0081
GCCTCGCA,-0.189
AGCCGCGG,-0.325
GGCTTAAA,0.039
